Assay results of several laboratories.
A part holds a random share of what one study measured.
Sequence of UniProt Q99558 (whole entry, looked up): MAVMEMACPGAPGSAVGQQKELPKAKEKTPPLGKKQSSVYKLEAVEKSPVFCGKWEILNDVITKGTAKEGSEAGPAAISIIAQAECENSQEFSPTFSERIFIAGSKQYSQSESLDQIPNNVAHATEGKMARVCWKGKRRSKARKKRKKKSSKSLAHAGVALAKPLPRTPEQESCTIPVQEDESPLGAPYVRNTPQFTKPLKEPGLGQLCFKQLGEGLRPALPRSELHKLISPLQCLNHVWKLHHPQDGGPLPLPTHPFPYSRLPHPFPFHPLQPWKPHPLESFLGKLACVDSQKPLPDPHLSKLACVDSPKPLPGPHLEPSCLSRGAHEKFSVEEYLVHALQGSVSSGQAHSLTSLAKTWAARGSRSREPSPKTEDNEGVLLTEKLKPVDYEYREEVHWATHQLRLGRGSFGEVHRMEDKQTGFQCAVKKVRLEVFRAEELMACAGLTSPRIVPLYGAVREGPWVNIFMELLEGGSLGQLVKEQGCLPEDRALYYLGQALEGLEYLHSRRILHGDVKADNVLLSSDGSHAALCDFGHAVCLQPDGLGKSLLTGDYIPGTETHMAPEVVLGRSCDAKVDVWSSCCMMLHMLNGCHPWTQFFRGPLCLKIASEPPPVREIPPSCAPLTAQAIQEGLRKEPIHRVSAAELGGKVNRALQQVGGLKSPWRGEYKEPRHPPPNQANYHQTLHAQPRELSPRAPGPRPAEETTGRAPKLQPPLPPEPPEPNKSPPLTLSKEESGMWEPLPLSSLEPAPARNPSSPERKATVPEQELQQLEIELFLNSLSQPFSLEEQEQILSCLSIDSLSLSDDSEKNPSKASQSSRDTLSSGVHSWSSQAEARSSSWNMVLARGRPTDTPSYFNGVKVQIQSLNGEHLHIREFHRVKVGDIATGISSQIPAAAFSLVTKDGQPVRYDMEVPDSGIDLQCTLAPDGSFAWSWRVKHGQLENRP
Sequence of UniProt Q9HC98 (whole entry, looked up): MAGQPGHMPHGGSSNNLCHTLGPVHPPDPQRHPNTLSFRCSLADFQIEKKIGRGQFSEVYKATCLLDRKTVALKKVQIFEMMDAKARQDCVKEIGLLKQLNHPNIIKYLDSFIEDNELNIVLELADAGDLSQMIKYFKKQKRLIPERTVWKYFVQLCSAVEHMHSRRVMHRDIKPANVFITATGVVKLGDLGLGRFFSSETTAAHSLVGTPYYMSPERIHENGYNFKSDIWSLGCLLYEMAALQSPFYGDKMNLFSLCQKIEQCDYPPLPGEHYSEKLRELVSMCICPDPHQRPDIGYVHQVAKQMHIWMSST
Sequence of UniProt P27361 (whole entry, looked up): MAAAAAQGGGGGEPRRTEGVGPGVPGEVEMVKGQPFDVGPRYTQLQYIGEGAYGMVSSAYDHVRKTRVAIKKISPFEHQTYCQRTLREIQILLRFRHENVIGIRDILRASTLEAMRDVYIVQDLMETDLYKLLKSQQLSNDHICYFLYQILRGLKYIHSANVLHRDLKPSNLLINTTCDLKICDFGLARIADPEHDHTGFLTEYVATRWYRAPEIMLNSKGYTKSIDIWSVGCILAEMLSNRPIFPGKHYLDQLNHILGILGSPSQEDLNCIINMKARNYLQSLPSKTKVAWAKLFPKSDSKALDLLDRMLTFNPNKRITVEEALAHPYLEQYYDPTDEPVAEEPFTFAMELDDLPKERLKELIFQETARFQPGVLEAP
Sequence of UniProt Q04912 (whole entry, looked up): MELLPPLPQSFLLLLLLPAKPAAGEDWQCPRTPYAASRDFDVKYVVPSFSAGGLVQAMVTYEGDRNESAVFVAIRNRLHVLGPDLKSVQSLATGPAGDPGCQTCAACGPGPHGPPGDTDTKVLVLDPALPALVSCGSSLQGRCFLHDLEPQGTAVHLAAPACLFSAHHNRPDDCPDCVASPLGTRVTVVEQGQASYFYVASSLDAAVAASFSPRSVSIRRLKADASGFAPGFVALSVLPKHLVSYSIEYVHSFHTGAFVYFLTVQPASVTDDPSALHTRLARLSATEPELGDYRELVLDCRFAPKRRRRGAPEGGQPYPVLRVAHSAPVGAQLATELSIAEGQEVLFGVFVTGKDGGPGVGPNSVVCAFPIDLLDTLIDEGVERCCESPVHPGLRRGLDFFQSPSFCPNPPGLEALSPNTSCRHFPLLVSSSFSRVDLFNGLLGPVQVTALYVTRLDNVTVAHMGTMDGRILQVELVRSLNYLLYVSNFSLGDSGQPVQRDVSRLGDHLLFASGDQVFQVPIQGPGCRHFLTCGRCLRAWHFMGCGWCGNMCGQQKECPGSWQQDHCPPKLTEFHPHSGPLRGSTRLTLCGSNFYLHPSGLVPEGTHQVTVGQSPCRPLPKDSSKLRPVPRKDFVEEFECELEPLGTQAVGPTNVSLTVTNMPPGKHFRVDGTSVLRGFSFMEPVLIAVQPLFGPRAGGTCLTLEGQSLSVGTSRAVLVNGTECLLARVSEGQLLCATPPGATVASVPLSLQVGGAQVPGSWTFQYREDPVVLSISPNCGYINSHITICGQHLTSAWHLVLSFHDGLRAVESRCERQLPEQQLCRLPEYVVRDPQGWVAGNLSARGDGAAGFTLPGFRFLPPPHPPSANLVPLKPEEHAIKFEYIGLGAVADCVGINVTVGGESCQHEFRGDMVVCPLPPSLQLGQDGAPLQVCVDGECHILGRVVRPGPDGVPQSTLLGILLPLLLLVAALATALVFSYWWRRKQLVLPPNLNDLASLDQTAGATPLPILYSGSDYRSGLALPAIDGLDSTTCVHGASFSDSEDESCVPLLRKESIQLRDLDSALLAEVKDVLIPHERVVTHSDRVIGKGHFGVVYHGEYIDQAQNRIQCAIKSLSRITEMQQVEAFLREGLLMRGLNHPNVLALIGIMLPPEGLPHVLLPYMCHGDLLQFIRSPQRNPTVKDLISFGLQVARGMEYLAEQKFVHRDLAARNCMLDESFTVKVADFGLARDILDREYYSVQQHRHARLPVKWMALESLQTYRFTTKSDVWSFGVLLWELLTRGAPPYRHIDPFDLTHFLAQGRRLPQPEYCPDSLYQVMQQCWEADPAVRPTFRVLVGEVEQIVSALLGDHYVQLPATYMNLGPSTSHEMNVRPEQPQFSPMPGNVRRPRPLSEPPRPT
Sequence of UniProt Q9UPE1 (whole entry, looked up): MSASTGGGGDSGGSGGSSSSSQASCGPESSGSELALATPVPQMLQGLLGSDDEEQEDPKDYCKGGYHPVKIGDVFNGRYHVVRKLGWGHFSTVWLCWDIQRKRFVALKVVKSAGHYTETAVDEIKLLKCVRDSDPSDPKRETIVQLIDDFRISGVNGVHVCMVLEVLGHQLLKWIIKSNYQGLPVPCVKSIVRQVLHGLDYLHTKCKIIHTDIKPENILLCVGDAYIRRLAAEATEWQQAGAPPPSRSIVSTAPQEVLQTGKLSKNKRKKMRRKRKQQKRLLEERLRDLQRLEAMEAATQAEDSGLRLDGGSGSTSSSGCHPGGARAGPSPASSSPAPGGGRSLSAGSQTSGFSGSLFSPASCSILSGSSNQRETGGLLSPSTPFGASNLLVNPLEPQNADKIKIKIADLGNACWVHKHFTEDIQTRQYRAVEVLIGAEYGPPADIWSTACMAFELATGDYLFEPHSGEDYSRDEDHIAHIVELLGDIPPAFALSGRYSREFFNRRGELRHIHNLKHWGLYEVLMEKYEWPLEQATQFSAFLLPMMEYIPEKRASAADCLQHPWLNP
Sequence of UniProt Q15349 (whole entry, looked up): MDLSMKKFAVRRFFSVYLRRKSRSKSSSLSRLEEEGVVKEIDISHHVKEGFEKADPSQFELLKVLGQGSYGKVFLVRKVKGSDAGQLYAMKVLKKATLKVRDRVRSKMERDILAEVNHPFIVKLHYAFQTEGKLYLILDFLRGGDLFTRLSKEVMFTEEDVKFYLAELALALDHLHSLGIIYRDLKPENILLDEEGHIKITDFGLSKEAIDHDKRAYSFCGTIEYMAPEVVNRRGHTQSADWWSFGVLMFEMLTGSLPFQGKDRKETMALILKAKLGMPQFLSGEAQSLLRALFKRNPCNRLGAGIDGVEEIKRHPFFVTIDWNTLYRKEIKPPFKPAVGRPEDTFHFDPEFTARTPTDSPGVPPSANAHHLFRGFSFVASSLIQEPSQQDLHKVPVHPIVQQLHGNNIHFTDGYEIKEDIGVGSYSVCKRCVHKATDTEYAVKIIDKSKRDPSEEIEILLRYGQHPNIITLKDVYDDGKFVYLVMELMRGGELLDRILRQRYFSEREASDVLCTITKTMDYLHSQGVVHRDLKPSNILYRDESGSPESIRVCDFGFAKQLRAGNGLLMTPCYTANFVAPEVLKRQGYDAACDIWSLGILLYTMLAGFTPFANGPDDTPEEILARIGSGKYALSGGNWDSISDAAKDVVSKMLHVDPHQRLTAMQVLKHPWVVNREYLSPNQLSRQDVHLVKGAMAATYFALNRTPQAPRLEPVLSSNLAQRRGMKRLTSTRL

Set 1 — technique: RNA Bind-n-Seq; form: RNA; sample: in vitro; tested at: 20 nM; notes: 6-mer, flanks averaged, single round; added: 150 mM LiCl; reference: input library; direction: higher = stronger binding
Target: TAR DNA-binding protein 43, full length, His tag (TARDBP, Homo sapiens, UniProt Q13148, residues 1-414)
Strand | 6-mer enrichment (R)
GAGGAG | 1.19
CCCGCG | 0.991
CUGGUA | 0.942
CAUCUA | 0.828
UCGGUG | 1.08
UCGCAU | 0.874
GGUUCA | 0.916
UGGAAG | 1.09

Set 2 — technique: RNA Bind-n-Seq; form: RNA; sample: in vitro; tested at: 200 nM; notes: whole 134-nt RNA, ends assumed; added: 150 mM LiCl; reference: input library; direction: higher = stronger binding; each molecule: 7-deaza-guanosine replaces G
Target: Ras GTPase-activating protein-binding protein 1, full length (G3BP1, Homo sapiens, UniProt Q13283)
Sequence of UniProt Q13283 (whole entry, looked up): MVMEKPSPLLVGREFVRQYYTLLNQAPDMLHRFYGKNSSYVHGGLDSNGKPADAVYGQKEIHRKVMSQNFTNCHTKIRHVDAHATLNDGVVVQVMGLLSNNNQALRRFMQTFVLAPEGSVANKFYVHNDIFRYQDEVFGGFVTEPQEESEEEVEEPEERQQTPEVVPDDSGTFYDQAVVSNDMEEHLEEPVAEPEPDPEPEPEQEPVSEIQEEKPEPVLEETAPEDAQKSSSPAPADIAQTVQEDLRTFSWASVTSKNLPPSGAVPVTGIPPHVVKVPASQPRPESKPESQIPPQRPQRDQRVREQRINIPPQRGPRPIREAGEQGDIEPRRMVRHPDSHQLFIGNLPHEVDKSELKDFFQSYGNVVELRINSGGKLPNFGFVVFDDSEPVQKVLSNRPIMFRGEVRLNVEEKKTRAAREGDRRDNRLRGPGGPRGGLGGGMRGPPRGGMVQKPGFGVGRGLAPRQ
All sequences stand within: GGGAGUUCUACAGUCCGACGAUC … UGGAAUUCUCGGGUGUCAAGG
Strand | log2 enrichment
AAGUCCUGUGCUACACAUCGUAUGUACCGAAUCGGUUUUUGGAAAGGUUUUUUUGGAAAGUAUUAUGUUACGCCGUUCGGAUCUGCACUU | -1.67
ACCAUGCAGGUGGGCAUCUUUGGGAAGUGGGGCAAGGGGGGGAUAGGGAGGGGCGUAACACUUUGGGAACAGGUGGUCCCAGGUCGUUUC | 0.335
CCUGUGCUACACAUCGUAUGUACCGAAUCGGGGAAAAAAAGGGGAGGGGUUUUUUUGGGGAAAGUAUUAUGUUACGCCGUUCGGAUCUGC | 0.614
GCAGGAAGUAAAAACAAAUGGAAAUGCUUCGGCUAGUGGCAGGGGUGGGGGUUGCUAAGGAAAGGGUGGGAUGGGAGUGGGUAAAGAGUU | 0.291
CAAGUCCUGUGCUACACAUCGUAUGUACCGAAUCGGGGAGGGGUUUGGGGAGGGGAAAGUAUUAUGUUACGCCGUUCGGAUCUGCACUUC | 0.333
UGUGCUACACAUCGUAUGUACCGAAUCGGGGUUUUUUUGGGGUUUUUUUGGUUUUUUUGGGGAAAGUAUUAUGUUACGCCGUUCGGAUCU | 1.52
CACAGACAACACGCACCCACACAGACACAGAGGGAACGGGUUGGGAUGGGGACAGGGUGCACAGCAGGGCGGGGUAGGACCCCAGCCCCU | -1.8
AAGUCCUGUGCUACACAUCGUAUGUACCGAAUCGGGUUUUUGGGAGGGAAAAAGGGAAAGUAUUAUGUUACGCCGUUCGGAUCUGCACUU | 0.0959

Set 3 — SMILES: CC(C)(O)c1cncc(-c2nc3ccc(F)cc3n2C2CC2)c1; observed: cell-free assay; technique: competition with immobilised ligand; tested at: 1 µM
target | remaining binding [%]
PLK3 (Homo sapiens, UniProt Q9H4B4) | 100
SRPK3 (Homo sapiens, UniProt Q9UPE1) | 100
MAP3K5 (Homo sapiens, UniProt Q99683) | 100
PIK3CA (Homo sapiens, UniProt P42336, H1047L) | 97

Set 4 — Compound: CCN(CC)CCCCN1c2ccccc2Oc2ccc(Cl)cc21; observed: enzyme activity; action: inhibitor; tested at: 0.5 µM; reference: control
target | remaining activity [%]
ARAF (Homo sapiens, UniProt P10398) | 103
ABL2 (Homo sapiens, UniProt P42684) | 101
FRK (Homo sapiens, UniProt P42685) | 98.4
MAPK3 (Homo sapiens, UniProt P27361) | 111
RPS6KA2 (Homo sapiens, UniProt Q15349) | 88
MST1R (Homo sapiens, UniProt Q04912) | 112
GSK3B (Homo sapiens, UniProt P49841) | 113
NEK6 (Homo sapiens, UniProt Q9HC98) | 107
JAK3 (Homo sapiens, UniProt P52333) | 106
MAP3K14 (Homo sapiens, UniProt Q99558) | 95.6
ACVR1B (Homo sapiens, UniProt P36896) | 105
ULK2 (Homo sapiens, UniProt Q8IYT8) | 103
TBK1 (Homo sapiens, UniProt Q9UHD2) | 86.3
